Assay results of several laboratories.
Several values in a cell are separate wells, animals, samples, runs or records.

C[C@H](NC(=O)CNC(=O)[C@@H]1CCCN1C(=O)[C@H](CO)NC(=O)CNC(=O)[C@H](CO)NC(=O)[C@H](C)NC(=O)[C@H](CC(N)=O)NC(=O)[C@H](C)NC(=O)[C@H](CO)NC(=O)[C@H](C)NC(=O)[C@H](CO)NC(=O)[C@@H]1CCCN1C(=O)[C@H](Cc1ccccc1)NC(=O)[C@H](C)NC(=O)[C@H](CO)NC(=O)[C@@H]1CCCN1C(=O)[C@H](Cc1ccccc1)NC(=O)[C@@H](NC(=O)[C@H](CC(=O)O)NC(=O)[C@@H](N)CO)[C@@H](C)O)C(=O)N[C@@H](CCCNC(=N)N)C(=O)N[C@@H](CO)C(=O)O
remaining peptide (CHO-K1 culture medium; 60 min): 1.02%

C#Cc1c(F)ccc2cc(O)cc(-c3ncc4c(N5CC6CCC(C5)N6C(=O)OC(C)OC(=O)C(CCCC)CCCC)nc(OC[C@@]56CCCN5C[C@H](F)C6)nc4c3F)c12 (stereo partly drawn)
remaining prodrug (simulated gastric fluid; 1 µM, 30 min, 37 °C): 105%

Cc1cc(-c2ccc3ccccc3c2)nnc1NCCN1CCN(C)CC1
remaining compound (human liver microsomes; 30 min): 94.7%

C#Cc1c(F)ccc2cc(O)cc(-c3ncc4c(N5CC6CCC(C5)N6C(=O)OC(C)OC(=O)CCCCCCC)nc(OC[C@@]56CCCN5C[C@H](F)C6)nc4c3F)c12 (stereo partly drawn)
remaining prodrug (simulated gastric fluid; 1 µM, 30 min, 37 °C): 109%

C=CCN1CCC23c4c5ccc(OC(=O)c6ccc(NC(=O)OC(C)(C)C)cc6)c4OC2C(=O)CCC3(O)C1C5 (stereo not drawn)
remaining compound (human plasma; 24 h): 42.8% and 41.1% and 40%

Cc1nnc(-c2ccc(CC(=O)NCCCC[C@H](NC(=O)c3ccc(OCc4ccc(B(O)O)cc4)c(-c4nc5ccccc5c(=O)[nH]4)c3)C(=O)NCC(=O)NCC(=O)NCC(=O)N[C@@H](Cc3ccccc3)C(=O)N[C@@H](Cc3ccccc3)C(=O)O)cc2)nn1
remaining compound (UPLC-MS/MS; human serum; 100 µM, 3 h, 37 °C): 73.5%

CC[C@H](C)[C@H](NC(=O)[C@@H](NC(=O)[C@H](CCCCN)NC(=O)[C@@H](NC(=O)[C@@H]1CCCN1[C@@H]1CN(C(=O)[C@@H](NC(=O)[C@@H](NC(=O)[C@@H](NC(=O)[C@@H](NC(=O)[C@@H](NC(=O)[C@@H](N)CCCCN)C(C)C)C(C)C)C(C)C)[C@@H](C)CC)[C@@H](C)O)CC[C@H]1NS(=O)(=O)c1ccc(C)cc1)[C@@H](C)O)C(C)C)C(=O)N[C@@H](CC(C)C)C(=O)N[C@@H](Cc1c[nH]cn1)C(N)=O
remaining intact peptide (LC-MS; pronase digest; 200 µM, 1 h, pH 7.5, 37 °C, added: pronase 2.5 µg/mL): 100%

C=CCN1CCC23c4c5ccc(OC(=O)c6ccc(N)cc6)c4OC2C(=O)CCC3(O)C1C5 (stereo not drawn)
remaining compound (rat plasma; 1 h, no inhibitor): 0.3% and 0.317%

CC(C)[C@@H]1NC(=O)CNC(=O)[C@H](CC(N)=O)NC(=O)[C@H](CCCNC(=N)N)NC(=O)[C@H](Cc2ccc(O)cc2)NC(=O)[C@H](C(C)C)NC(=O)[C@@H](NC(=O)[C@@H](NC(=O)[C@H](CC(N)=O)NC(=O)[C@H](Cc2c[nH]c3ccccc23)NC(=O)[C@H](C)NC(=O)[C@H](Cc2ccccc2)NC(=O)CNC(=O)[C@H](CCCCN)NC(=O)[C@H](Cc2ccccc2)NC(=O)[C@H](Cc2ccccc2)NC(=O)[C@H](CCCCN)NC(=O)OCC2c3ccccc3-c3ccccc32)C(C)C)CSSC[C@@H](C(=O)N[C@@H](Cc2c[nH]cn2)C(=O)N[C@@H](CCCNC(=N)N)C(=O)N[C@@H](CCCNC(=N)N)C(=O)N[C@@H](C)C(=O)N[C@@H](CC(N)=O)C(N)=O)NC(=O)[C@H](C(C)C)NC(=O)[C@H](CCCNC(=N)N)NC1=O
remaining peptide (HPLC; mouse mammary gland homogenate; 2560 µM, 6.00 h, 37 °C, 50 mg/mL tissue): 68.9% and 75% and 73.7%

For quick reference, copied from above:
C#Cc1c(F)ccc2cc(O)cc(-c3ncc4c(N5CC6CCC(C5)N6C(=O)OC(C)OC(=O)CCCCCCC)nc(OC[C@@]56CCCN5C[C@H](F)C6)nc4c3F)c12 (stereo partly drawn)
remaining prodrug (simulated gastric fluid; 1 µM, 30 min, 37 °C): 109%
